Published values collected from several papers.
Protocols differ between the studies behind these lines.
HLA class I histocompatibility antigen, A alpha chain allele A*02:01: HLA class I histocompatibility antigen, A alpha chain, allele A*02:01 (Homo sapiens, UniProt P04439)

With CSCC[C@H](NC(=O)[C@H](Cc1c[nH]cn1)NC(=O)[C@H](Cc1ccccc1)NC(=O)[C@@H]1CCCN1C(=O)[C@H](CCCCN)NC(=O)[C@H](CCC(=O)O)NC(=O)[C@H](Cc1c[nH]c2ccccc12)NC(=O)[C@H](CC(C)C)NC(=O)[C@@H](N)CCCNC(=N)N)C(=O)O the IC50 was 53.7 µM (HLA class I histocompatibility antigen, A alpha chain, allele A*01:01 (Homo sapiens, UniProt P04439); binding).
CC(C)C[C@H](NC(=O)[C@H](Cc1ccc(O)cc1)NC(=O)CNC(=O)[C@@H](N)C(C)C)C(=O)N[C@@H](CCC(N)=O)C(=O)N1CCC[C@H]1C(=O)N[C@@H](CCCNC(=N)N)C(=O)N[C@H](C(=O)N[C@@H](Cc1ccccc1)C(=O)O)[C@@H](C)O has an IC50 of greater than 70 µM (HLA class I histocompatibility antigen, A alpha chain allele A*02:01; peptide-MHC binding, radioligand competition binding).
CC(C)[C@H](NC(=O)CNC(=O)CNC(=O)[C@@H](NC(=O)[C@H](CO)NC(=O)[C@@H]1CCCN1C(=O)[C@H](C)NC(=O)[C@H](CO)NC(=O)[C@H](CCCCN)NC(=O)[C@@H](N)CCCNC(=N)N)[C@@H](C)O)C(=O)O gave an IC50 of 20.6 µM (HLA class I histocompatibility antigen, A alpha chain, allele A*02:17 (Homo sapiens, UniProt P04439); binding).
With CC[C@H](C)[C@H](NC(=O)[C@H](CCCNC(=N)N)NC(=O)CNC(=O)[C@@H](NC(=O)[C@@H]1CCCN1C(=O)[C@@H](N)CCSC)[C@@H](C)CC)C(=O)N[C@@H](C)C(=O)N[C@@H](CCC(=O)O)C(=O)N[C@@H](CS)C(=O)N[C@H](C(=O)N[C@@H](CC(C)C)C(=O)O)[C@@H](C)CC the IC50 was greater than 40 µM (HLA class I histocompatibility antigen, A alpha chain, allele A*02:06 (Homo sapiens, UniProt P04439); binding, competitor, radioligand competition; two days, room temperature, HLA-A*02:06).
The IC50 of CSCC[C@H](NC(=O)[C@@H](N)CCCNC(=N)N)C(=O)N[C@@H](Cc1ccccc1)C(=O)NCC(=O)N1CCC[C@H]1C(=O)N1CCC[C@H]1C(=O)N[C@@H](CC(C)C)C(=O)N[C@H](C(=O)N[C@@H](Cc1ccccc1)C(=O)O)[C@@H](C)O is reported as 0.042 µM (HLA class I histocompatibility antigen, A alpha chain, allele A*24:02 (Homo sapiens, UniProt P04439); binding).
CC(C)[C@H](NC(=O)[C@@H](NC(=O)[C@H](CCCNC(=N)N)NC(=O)[C@H](C)NC(=O)[C@H](C)NC(=O)[C@H](CCC(=O)O)NC(=O)[C@H](CO)NC(=O)[C@H](C)NC(=O)[C@@H](N)Cc1ccccc1)C(C)C)C(=O)O gave an IC50 of 0.495 µM (HLA class I histocompatibility antigen, A alpha chain allele A*02:01; peptide-MHC binding, radioligand competition binding).
For CC(C)[C@H](NC(=O)[C@@H](N)CCCCN)C(=O)N[C@@H](CC(=O)O)C(=O)N1CCC[C@H]1C(=O)N[C@@H](CCCCN)C(=O)N[C@@H](Cc1ccccc1)C(=O)N[C@H](C(=O)N[C@@H](CO)C(=O)N[C@@H](Cc1ccccc1)C(=O)O)[C@@H](C)O, the IC50 was 29.4 µM (HLA class I histocompatibility antigen, A alpha chain allele A*02:01; binding).
CC(C)C[C@H](NC(=O)[C@H](CCC(N)=O)NC(=O)[C@H](CC(=O)O)NC(=O)[C@H](C)NC(=O)[C@@H](N)Cc1c[nH]cn1)C(=O)N[C@H](C(=O)N1CCC[C@H]1C(=O)N[C@H](C(=O)N[C@@H](Cc1c[nH]c2ccccc12)C(=O)O)[C@@H](C)O)[C@@H](C)O gave an IC50 of greater than 70 µM (HLA class I histocompatibility antigen, A alpha chain, allele A*26:01 (Homo sapiens, UniProt P04439); peptide-MHC binding, radioligand competition binding).
CSCC[C@H](NC(=O)[C@H](CCC(=O)O)NC(=O)[C@H](CCC(=O)O)NC(=O)[C@@H](N)CCCNC(=N)N)C(=O)N[C@@H](CCC(=O)O)C(=O)N[C@H](C(=O)N[C@@H](Cc1c[nH]cn1)C(=O)N[C@@H](CCC(=O)O)C(=O)N[C@@H](CC(C)C)C(=O)O)C(C)C gave an IC50 of greater than 40 µM (HLA class I histocompatibility antigen, A alpha chain allele A*02:01; binding, competitor, radioligand competition; two days, room temperature, HLA-A*02:01).

Repeated from above:
With CSCC[C@H](NC(=O)[C@H](Cc1c[nH]cn1)NC(=O)[C@H](Cc1ccccc1)NC(=O)[C@@H]1CCCN1C(=O)[C@H](CCCCN)NC(=O)[C@H](CCC(=O)O)NC(=O)[C@H](Cc1c[nH]c2ccccc12)NC(=O)[C@H](CC(C)C)NC(=O)[C@@H](N)CCCNC(=N)N)C(=O)O the IC50 was 53.7 µM (HLA class I histocompatibility antigen, A alpha chain, allele A*01:01 (Homo sapiens, UniProt P04439); binding).
